{"data": "Measurements gathered from unrelated publications", "note": "Numbered parts are unrelated; each lists some results of a single study. Substitutions count along the parent as printed."}
{"data": "Sample 1", "target": "Hepatocyte nuclear factor 3-beta, forkhead domain (FOXA2, Homo sapiens, UniProt Q9Y261, residues 142-269)", "method": "protein-binding microarray", "molecule type": "double-stranded DNA, one strand shown", "matrix": "in vitro", "concentration": "not given", "setting": "k-mer, scored over probes, only values ≥0.25", "reading": "higher = stronger binding", "Target sequence (chain)": "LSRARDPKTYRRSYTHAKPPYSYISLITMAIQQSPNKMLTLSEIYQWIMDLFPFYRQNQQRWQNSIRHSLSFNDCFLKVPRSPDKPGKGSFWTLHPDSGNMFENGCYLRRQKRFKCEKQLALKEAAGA"}
{"Strand": "ACCATAAT", "E-score": 0.304}
{"Strand": "CAACATCA", "E-score": 0.328}
{"Strand": "AATAAGTA", "E-score": 0.328}
{"Strand": "TGCATAAA", "E-score": 0.259}
{"Strand": "GTACACAC", "E-score": 0.397}
{"Strand": "CAATATGA", "E-score": 0.269}
{"Strand": "GACAATAA", "E-score": 0.277}
{"Strand": "AATAGAAT", "E-score": 0.269}
{"Strand": "GATACAGA", "E-score": 0.254}
{"Strand": "ATCTACTA", "E-score": 0.319}
{"Strand": "AATATTAT", "E-score": 0.313}
{"Strand": "AAAAACAA", "E-score": 0.295}
{"Strand": "ATAGAGAT", "E-score": 0.284}
{"Strand": "ACACAAGC", "E-score": 0.256}
{"Strand": "ACTATTAA", "E-score": 0.297}
{"Strand": "ACACAAAC", "E-score": 0.37}
{"Strand": "AATACATC", "E-score": 0.324}
{"data": "Sample 2", "target": "CCNF, cyclin fold, Cln2 fusion (human)", "method": "yeast growth competition, sequencing", "matrix": "yeast", "setting": "strong parent motif", "baseline": "not given", "reading": "higher = stronger binding", "starting sequence": "DOT1L docking peptide (human); SEAKRRIVFTITT"}
{"Variant": "R6A", "normalised enrichment score": 1.62}
{"Variant": "R5A", "normalised enrichment score": -0.13}
{"Variant": "I11A", "normalised enrichment score": 4.32}
{"Variant": "I7A", "normalised enrichment score": 0.139}
{"Variant": "T12A", "normalised enrichment score": 4.29}
{"Variant": "E2A", "normalised enrichment score": 5.61}
{"data": "Sample 3", "target": "Interferon regulatory factor 5, full length, phosphomimetic (IRF5, Homo sapiens, UniProt Q13568-2, residues 1-514, K96S/S451D/S453D/S456D/S462D)", "method": "protein-binding microarray", "molecule type": "double-stranded DNA, one strand shown", "matrix": "in vitro", "concentration": "250 nM", "setting": "60-bp whole probe", "with": "salmon DNA 0.4 mg/ml", "baseline": "random background probes", "reading": "higher = stronger binding", "all sequences stand within": "GCCTAGCAC … GTCTTGATTCGCTTGACGCTGCTG"}
{"Strand": "TCAATTTTGGTTTTCCTACTGTGCTAG", "log fluorescence": "2.53 z-score"}
{"Strand": "TTAGGACTGCGGACTGGGTTAGTGCTA", "log fluorescence": "-0.181 z-score"}
{"Strand": "AGCAGTTTCTCAACCACTTTGTGCTAG", "log fluorescence": "0.907 z-score"}
{"Strand": "TTAAGTCTCGGTATCGGTTAGTGCTAG", "log fluorescence": "6.31 z-score"}
{"Strand": "TTAGAACTGGGGTATAGATTAGTGCTA", "log fluorescence": "-0.0734 z-score"}
{"Strand": "TTAGATTCCAGTATCGATTAGTGCTAG", "log fluorescence": "7.06 z-score"}
{"Strand": "TTAGATTTCATTATCGATTAGTGCTAG", "log fluorescence": "7.65 z-score"}
{"Strand": "TCAATGATCTTCCTTCATACTGTGCTA", "log fluorescence": "0.499 z-score"}
{"Strand": "TTAGAACTGAGTATCTATTAGTGCTAG", "log fluorescence": "1.06 z-score"}
{"Strand": "GACGGTATCATTTTCCTGACGTGCTAG", "log fluorescence": "1.29 z-score"}
{"Strand": "GACGACTCCAGTTTCGAGACGTGCTAG", "log fluorescence": "4.85 z-score"}
{"Strand": "AGCTTTCCCAACATCAGAGCGTGCTAG", "log fluorescence": "0.267 z-score"}
{"Strand": "TCATCTCTGCCACTCAGACTGTGCTAG", "log fluorescence": "0.0388 z-score"}
{"Strand": "TTAGGGCTGGACACTGGGTTAGTGCTA", "log fluorescence": "-0.758 z-score"}
{"Strand": "TCAGGAGTGTTTCTCAGACTGTGCTAG", "log fluorescence": "-0.309 z-score"}
{"Strand": "GACGGTCTCCTTATCATGACGTGCTAG", "log fluorescence": "0.044 z-score"}
{"Strand": "GTCGATTTCAGTCTCGAGACGTGCTAG", "log fluorescence": "2.44 z-score"}
{"Strand": "TTACGTTTCCTACTGCTTTAGTGCTAG", "log fluorescence": "1.36 z-score"}
{"Strand": "TTAGATCTCGGACTGGGTTAGTGCTAG", "log fluorescence": "-0.204 z-score"}
{"Strand": "TCTTTTTCCTAATTGAACCCGTGCTAG", "log fluorescence": "0.888 z-score"}
{"Strand": "GACGATATCAGTCTCGCGACGTGCTAG", "log fluorescence": "0.974 z-score"}
{"Strand": "TTAGAACTGAGTCTCGATGAGTGCTAG", "log fluorescence": "0.272 z-score"}
{"Strand": "TTAGGTCTCGGGCTCGGTTAGTGCTAG", "log fluorescence": "-0.0978 z-score"}
{"Strand": "TTAGAAATCAGTTTCGATTAGTGCTAG", "log fluorescence": "10.2 z-score"}
{"Strand": "CACGATCTCAGTTTCGAGACGTGCTAG", "log fluorescence": "4.75 z-score"}
{"data": "Sample 4", "target": "RNA binding protein fox-1 homolog 2, RRM domain, GST-SBP tag (RBFOX2, Homo sapiens, UniProt O43251-10, residues 100-194)", "method": "RNA Bind-n-Seq", "molecule type": "RNA", "matrix": "in vitro", "concentration": "365 nM", "setting": "natural RNA segment, single round, ends assumed", "baseline": "no-protein control", "reading": "higher = stronger binding", "all sequences stand within": "GGGAGUUCUACAGUCCGACGAUC … UGGAAUUCUCGGGUGCCAA", "Construct (chain)": "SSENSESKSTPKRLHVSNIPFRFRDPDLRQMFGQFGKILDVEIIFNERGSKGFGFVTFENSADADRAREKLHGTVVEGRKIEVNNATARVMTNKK"}
{"Strand": "CUUACUUGAAACAGACAAUGAAAACAACCAAAGUGAUAUAUAAAAUAGUUGAUGAGAACUAGACUUAUGACUGUAGUUUACUAGAGUUUAGUUUUCAGUUGCUGAAGUAG", "RBNS enrichment (R)": 0.801}
{"Strand": "GGGGACAUUAGACUGAAAACUGGGACAACCCCCUUCCUUAUUUUAUAGAGACUAGGAGUUAAGGGGCCUGCCUAAGAUUGCAGUGAUAAAGAACUGAACCCUAAAUCAGC", "RBNS enrichment (R)": 0.336}
{"Strand": "CUGUAAGCCCUUCCCUAUCAGAGACAGUUGCAGAGUAGAGGAUAUUGAGGGGUUGAGGGGUUGAUCUGAGCUGGUGCCACUGCGAGCACAGCCUACAUGGUGAAUCCAGA", "RBNS enrichment (R)": 0.459}
{"Strand": "UGUAUUGAGACAGACCCGACAAGUUCCAUGGCAUUAAAUCCAGUUCUGCGUUGGCUGGGGCAGAGCUCAGCACCCUCAGCCCUGCGGCCGUUCAUCUUGUGUGUUUGUGA", "RBNS enrichment (R)": 0.492}
{"Strand": "UGUGGUCCGGCUUUGGGAGAGUGGUGAAUUGCGCUGCCCGAACUCGGAGCGGAGCAGGGUAGGGACCGUGUACAGCUUGAUAACCCUUAAUAAAAAGGGAGUUUGACCAG", "RBNS enrichment (R)": 1.14}
{"Strand": "UUAUUUAUGAAAAAAAAUGCUAAUAAUUUUGGGGCAGUUUUUUCCUUUAAUUAUUUUUUUCAAUUUCAAGUUUAAUUUUAUUUUAGCUGAUCUGAUGUGGUUUCAACUAA", "RBNS enrichment (R)": 0.638}
{"Strand": "ACAAGCCACCCCUCCUGAGAGGCAGGGGGCCCUCCGCCCCCUCCCCAUGUAUUCCCCACCUGUGUUCCGUUUGACCAGCACAGAAAUAUUAAACGUCCUCUAUUCACCGG", "RBNS enrichment (R)": 0.538}
{"Strand": "GGUCGAAAGUUAGUAGGAUAUGCCUGCUCUUUGGCCUGAUGACCAAUUUUAACUUAGAGCUUUUUUUUUUUAAUUUUGUCUGCCCCAAGUUUUGUGAAAUUUUUCAUAUU", "RBNS enrichment (R)": 1.26}
{"Strand": "GAGGUACUGCAAUAGAGUAUUUCAAAAUGGAAUCAGGAUCUGGUGGGCCUCAGAAAUUGUCUCUUUUCUGAGUUUCAAUUUGGUUCUCCUGGAUGUUUUGCUCUGUUUUG", "RBNS enrichment (R)": 0.456}
{"Strand": "GUCAGUAUCUCCAGCUCUGAUUACCUUUGAAGUGUUCAGAAGAGACAUUGUCUUCUACUGUUCUGCCAGGUUCUUCUUGAGCUUUGGGCCUCAGUUGCCCUGGCAGAAAA", "RBNS enrichment (R)": 0.289}
{"Strand": "GAAAGGGGAGUACUCUUGUACAGCCAGUUCUUUUAUGCAAAAAUCUAUGCAUUUUUACAAUCUUAUAUUAAACUGGUAUUUUCAAACAAUAGGAAACUUUUUUUUUUUUU", "RBNS enrichment (R)": 0.612}
{"Strand": "AAAAAAAUGUAAAGUGACAGUUAAGGAAAAACAACAUAUUAAAAUAUCAGAAAAACUGUUUACCCAGAGAAUUAUUUUCUCCCCACUUUUAUUUUUACUCAGUGACAUAA", "RBNS enrichment (R)": 0.685}
{"data": "Sample 5", "target": "RING finger protein unkempt homolog, zinc fingers 1-6, GST-SBP tag (UNK, Homo sapiens, UniProt Q9C0B0, residues 30-357)", "method": "RNA Bind-n-Seq", "molecule type": "RNA", "matrix": "in vitro", "concentration": "not given", "setting": "RNA with constant flanks, human-mouse chimeric sites, ends assumed", "baseline": "input RNA pool", "reading": "higher = stronger binding", "all sequences stand within": "GGGAGUUCUACAGUCCGACGAUC … CAACAGAGGAUUGAGCAUCA", "chain of UniProt Q9C0B0 (30-357, looked up)": "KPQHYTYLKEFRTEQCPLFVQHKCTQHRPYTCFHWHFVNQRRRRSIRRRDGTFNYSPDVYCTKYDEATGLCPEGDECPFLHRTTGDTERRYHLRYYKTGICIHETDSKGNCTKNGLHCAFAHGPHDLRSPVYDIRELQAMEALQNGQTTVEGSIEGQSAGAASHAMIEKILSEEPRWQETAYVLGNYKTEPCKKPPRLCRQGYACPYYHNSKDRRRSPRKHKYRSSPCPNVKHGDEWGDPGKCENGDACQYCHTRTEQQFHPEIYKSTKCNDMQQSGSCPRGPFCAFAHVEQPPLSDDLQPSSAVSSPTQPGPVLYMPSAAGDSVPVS"}
{"Strand": "GGAAGUACAUUAAUGGAGAUUGAUGGUGACAAAGGCAAACAAGGCGGGCCCACCUACUACAUAGACACCAAUGCCCUCCGCGUGCCCAGGGAGAACAUGGAGGCCAUCUCACCACUCAAG", "bound/input enrichment [ratio]": 0.27}
{"Strand": "CGGAGCCCUCCUCUCCCCCAGGCCCGAGAUAUAACCCACCAGUGCCUUUUGUCUUCCUGUCAGCUCUGUCAAUCACGCCUGUCCUCUCACGCCCACACCAAGUGCCCCCACCCCUAAGGG", "bound/input enrichment [ratio]": 0.574}
{"Strand": "UGUGCAUAUGAUGCUUGAGAUGGUUUUUGCAGAUGCAGACAUCGCUGCAAGGUAAUCACAAUAGAUAAAAGUGGUAUUUUAAACCUUUGAAAUAAAUGGAUGUAACUGUACCUUGGUACA", "bound/input enrichment [ratio]": 0.602}
{"Strand": "AGAGAUAAAGCAUCUAGGAACAUGCGAGGCUCCCGGAUGAAUGGGUUGCCUAGCCCCACUCACAGCGCCCACUGUAGCUUCUACCGAACCAGAACCUUGCAGGCACUGAGUAAUGAGAAG", "bound/input enrichment [ratio]": 0.105}
{"Strand": "GAUCAUGAACCACCAUCAGAAAUGAAGAUGAGAUUACCCAGACGAGCCAAAACAGCUGCGCUACAGAAAAAGUAAACUAACCUUGCACCAAUUUCUCAUGAAGAUACAAGUUAAGAGAGC", "bound/input enrichment [ratio]": 0.395}
{"Strand": "ACAGUUAUAUUGUUGAGUUUCAUUUUCAUAUAUUCUUGUAGUGUCUGCUUGCCUGUGACUUCUGGUAAAAUAAAAUAAGCCUUUGAAAAUAUUUUAGAUUUAACAUUUUCUAAAAAUAAA", "bound/input enrichment [ratio]": 1.41}
{"Strand": "UUGCUACUGACUCCCUGGGUCAAGUUCCUGUGGGAAUCUUACAGGCAGUGUUUGGACCUUCUUCGAAACAAUUCUAGAGUAGAGCGCCUUUACCAUGAUAUUGCCCAACAAGCUUUCAAA", "bound/input enrichment [ratio]": 0.131}
{"Strand": "UCAGGAACUCAGACAAACAUGAAUGUAAAUGAAGUCAUUAGCAACAGAGCAAUUGAAAUGUUAGGAGGUGAACUUGGCAGCAAGAAGCCUGUGCAUCCCAAUGAUCAUGUUAACAAAAGC", "bound/input enrichment [ratio]": 0.176}
{"note": "A few entries again (sample 3):"}
{"Strand": "TCAGGAGTGTTTCTCAGACTGTGCTAG", "log fluorescence": "-0.309 z-score"}
{"Strand": "GACGGTCTCCTTATCATGACGTGCTAG", "log fluorescence": "0.044 z-score"}
{"Strand": "GTCGATTTCAGTCTCGAGACGTGCTAG", "log fluorescence": "2.44 z-score"}
{"Strand": "TTACGTTTCCTACTGCTTTAGTGCTAG", "log fluorescence": "1.36 z-score"}
{"Strand": "TTAGATCTCGGACTGGGTTAGTGCTAG", "log fluorescence": "-0.204 z-score"}
{"Strand": "TCTTTTTCCTAATTGAACCCGTGCTAG", "log fluorescence": "0.888 z-score"}
{"Strand": "GACGATATCAGTCTCGCGACGTGCTAG", "log fluorescence": "0.974 z-score"}
{"Strand": "TTAGAACTGAGTCTCGATGAGTGCTAG", "log fluorescence": "0.272 z-score"}
{"Strand": "TTAGGTCTCGGGCTCGGTTAGTGCTAG", "log fluorescence": "-0.0978 z-score"}
{"Strand": "TTAGAAATCAGTTTCGATTAGTGCTAG", "log fluorescence": "10.2 z-score"}
{"Strand": "CACGATCTCAGTTTCGAGACGTGCTAG", "log fluorescence": "4.75 z-score"}
